Measurements pooled from the literature.
Protocols differ between the studies behind these lines. Numbers after ± are the reported error.
Target: Adenosine receptor A3 (ADORA3, Homo sapiens, UniProt P0DMS8)
UniProt P0DMS8, sequence (whole entry, looked up): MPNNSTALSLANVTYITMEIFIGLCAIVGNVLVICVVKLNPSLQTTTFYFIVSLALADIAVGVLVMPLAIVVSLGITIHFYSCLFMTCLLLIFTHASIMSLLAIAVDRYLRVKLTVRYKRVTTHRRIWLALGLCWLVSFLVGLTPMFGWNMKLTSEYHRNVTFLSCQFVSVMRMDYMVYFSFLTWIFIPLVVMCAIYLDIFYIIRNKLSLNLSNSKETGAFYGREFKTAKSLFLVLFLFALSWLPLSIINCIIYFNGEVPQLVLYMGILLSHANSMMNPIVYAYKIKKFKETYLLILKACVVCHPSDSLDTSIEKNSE

SMILES | assay | setting | quantity | value
Nc1ncnc2c1ncn2[C@@H]1O[C@H](C(=O)NCC(F)F)[C@@H](O)[C@H]1O | ligand displacement, radioligand | cell membranes | Ki | 0.52 µM
COc1ccc(-c2nc(CSc3nc(N)c(C#N)c(-c4ccccc4)c3C#N)cs2)cc1 | ligand displacement, radioligand | cell membranes | Ki | 0.507 µM
CCNC(=O)[C@H]1O[C@@H](n2cnc3c(Nc4ccc(I)cc4)ncnc32)[C@H](O)[C@@H]1O | ligand displacement, radioligand | cell membranes | Ki | 0.014 µM
Cc1cc(N2CC[C@@](C#N)(C3(C)CC3)C2=O)cc(C(=O)NCc2cc(F)cc(-c3cnn(C)c3)c2)n1 | cell-free assay |  | IC50 | 1.8 µM
CC(=O)Nc1ccc(-c2c(C#N)c(N)nc(SCc3ccccc3)c2C#N)cc1 | ligand displacement, radioligand | cell membranes | Ki | 0.156 µM
CN(C(=O)c1ccn2ncc(-c3ccc(C(N)=O)cc3)c2c1)c1ccc(C#N)cn1 | ligand displacement |  | IC50 | > 30 µM
OC[C@H]1O[C@@H](n2cnc3c(Nc4cccc(Br)c4)ncnc32)[C@H](O)[C@@H]1O | kinetic radioligand binding | no GTP, with: [3H]PSB-11 | Kd | 0.012 ± 0.0019 µM
N#Cc1c(N)nc(SCc2ncc[nH]2)c(C#N)c1-c1cccc(O)c1 | ligand displacement, radioligand | cell membranes | Ki | 0.03 µM
Nc1ncnc2c1ncn2[C@@H]1O[C@H](C(=O)NCCF)[C@@H](O)[C@H]1O | ligand displacement, radioligand | cell membranes | Ki | 0.24 µM
CNc1nc(C#Cc2ccc(Cl)s2)nc2c1ncn2[C@@H]1O[C@H](CO)[C@@H](O)[C@H]1O | kinetic radioligand binding | no GTP, with: [3H]PSB-11 | Kd | 0.00016 ± 2e-05 µM

Some of these lines once more:
SMILES | assay | setting | quantity | value
CN(C(=O)c1ccn2ncc(-c3ccc(C(N)=O)cc3)c2c1)c1ccc(C#N)cn1 | ligand displacement |  | IC50 | > 30 µM
